Assay results of several laboratories.
Every numbered part comes from another study and shows a few of its results, in no order. Values joined by “and” are separate records of one study, mostly repeats; a detail may differ.
UniProt O75716, sequence (whole entry, looked up): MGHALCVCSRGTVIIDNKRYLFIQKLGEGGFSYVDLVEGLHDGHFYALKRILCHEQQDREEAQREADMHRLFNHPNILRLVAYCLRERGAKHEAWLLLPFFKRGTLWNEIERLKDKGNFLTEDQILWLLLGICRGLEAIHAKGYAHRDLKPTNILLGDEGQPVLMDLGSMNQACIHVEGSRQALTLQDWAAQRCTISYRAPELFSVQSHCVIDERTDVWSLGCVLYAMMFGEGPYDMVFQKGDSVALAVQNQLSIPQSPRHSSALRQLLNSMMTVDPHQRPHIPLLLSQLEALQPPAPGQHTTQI
UniProt O95819, sequence (whole entry, looked up): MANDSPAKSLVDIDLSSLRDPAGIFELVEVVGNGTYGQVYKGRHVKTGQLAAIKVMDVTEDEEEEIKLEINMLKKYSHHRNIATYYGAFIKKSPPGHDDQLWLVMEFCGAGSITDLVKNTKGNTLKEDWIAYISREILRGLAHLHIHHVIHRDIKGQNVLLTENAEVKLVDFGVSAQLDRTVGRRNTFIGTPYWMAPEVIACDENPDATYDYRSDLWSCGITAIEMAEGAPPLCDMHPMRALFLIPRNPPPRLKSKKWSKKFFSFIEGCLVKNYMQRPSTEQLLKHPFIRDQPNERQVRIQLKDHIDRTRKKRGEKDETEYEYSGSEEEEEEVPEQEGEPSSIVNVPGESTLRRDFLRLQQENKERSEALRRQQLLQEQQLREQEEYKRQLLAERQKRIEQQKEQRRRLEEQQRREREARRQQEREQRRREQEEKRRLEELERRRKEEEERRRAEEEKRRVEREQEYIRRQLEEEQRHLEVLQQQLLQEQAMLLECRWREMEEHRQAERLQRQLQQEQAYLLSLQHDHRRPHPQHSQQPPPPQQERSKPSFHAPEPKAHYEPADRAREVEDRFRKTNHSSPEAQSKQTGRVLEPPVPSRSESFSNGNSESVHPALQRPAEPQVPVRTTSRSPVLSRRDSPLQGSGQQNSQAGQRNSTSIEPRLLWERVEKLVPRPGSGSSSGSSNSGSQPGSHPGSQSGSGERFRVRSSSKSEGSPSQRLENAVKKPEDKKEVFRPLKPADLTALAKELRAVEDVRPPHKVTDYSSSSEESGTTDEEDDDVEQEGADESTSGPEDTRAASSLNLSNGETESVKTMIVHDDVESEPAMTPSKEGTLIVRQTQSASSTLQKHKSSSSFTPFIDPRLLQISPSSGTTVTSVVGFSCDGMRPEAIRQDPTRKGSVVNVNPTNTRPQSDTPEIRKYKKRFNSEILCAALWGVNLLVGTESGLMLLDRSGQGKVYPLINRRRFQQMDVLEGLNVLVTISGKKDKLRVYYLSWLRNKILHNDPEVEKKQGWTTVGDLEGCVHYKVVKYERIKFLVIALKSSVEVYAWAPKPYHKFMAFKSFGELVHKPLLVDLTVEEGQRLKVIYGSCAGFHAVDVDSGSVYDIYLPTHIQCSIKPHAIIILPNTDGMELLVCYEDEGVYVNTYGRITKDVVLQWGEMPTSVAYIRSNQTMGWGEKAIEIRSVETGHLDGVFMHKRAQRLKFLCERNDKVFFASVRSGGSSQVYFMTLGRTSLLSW
UniProt Q9UK32, sequence (whole entry, looked up): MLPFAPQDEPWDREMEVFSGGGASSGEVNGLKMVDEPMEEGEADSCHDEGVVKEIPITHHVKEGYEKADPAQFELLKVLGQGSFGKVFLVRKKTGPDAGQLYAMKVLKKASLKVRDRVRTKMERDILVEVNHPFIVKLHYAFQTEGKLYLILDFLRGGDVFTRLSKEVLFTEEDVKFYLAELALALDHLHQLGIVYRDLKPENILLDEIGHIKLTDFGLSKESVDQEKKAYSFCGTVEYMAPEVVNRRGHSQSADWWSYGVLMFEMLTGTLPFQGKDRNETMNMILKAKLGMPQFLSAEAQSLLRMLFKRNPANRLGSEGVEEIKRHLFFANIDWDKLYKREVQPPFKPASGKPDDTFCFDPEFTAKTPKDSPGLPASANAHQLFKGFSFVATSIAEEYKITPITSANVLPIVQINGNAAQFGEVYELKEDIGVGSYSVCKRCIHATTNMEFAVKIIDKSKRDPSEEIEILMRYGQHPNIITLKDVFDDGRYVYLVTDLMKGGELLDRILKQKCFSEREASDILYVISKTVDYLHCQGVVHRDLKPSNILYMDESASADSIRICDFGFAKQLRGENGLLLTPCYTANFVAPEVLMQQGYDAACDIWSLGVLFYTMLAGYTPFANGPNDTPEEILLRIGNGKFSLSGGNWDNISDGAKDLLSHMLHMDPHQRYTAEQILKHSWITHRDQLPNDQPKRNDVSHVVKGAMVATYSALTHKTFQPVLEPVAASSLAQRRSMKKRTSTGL
UniProt P54762, sequence (whole entry, looked up): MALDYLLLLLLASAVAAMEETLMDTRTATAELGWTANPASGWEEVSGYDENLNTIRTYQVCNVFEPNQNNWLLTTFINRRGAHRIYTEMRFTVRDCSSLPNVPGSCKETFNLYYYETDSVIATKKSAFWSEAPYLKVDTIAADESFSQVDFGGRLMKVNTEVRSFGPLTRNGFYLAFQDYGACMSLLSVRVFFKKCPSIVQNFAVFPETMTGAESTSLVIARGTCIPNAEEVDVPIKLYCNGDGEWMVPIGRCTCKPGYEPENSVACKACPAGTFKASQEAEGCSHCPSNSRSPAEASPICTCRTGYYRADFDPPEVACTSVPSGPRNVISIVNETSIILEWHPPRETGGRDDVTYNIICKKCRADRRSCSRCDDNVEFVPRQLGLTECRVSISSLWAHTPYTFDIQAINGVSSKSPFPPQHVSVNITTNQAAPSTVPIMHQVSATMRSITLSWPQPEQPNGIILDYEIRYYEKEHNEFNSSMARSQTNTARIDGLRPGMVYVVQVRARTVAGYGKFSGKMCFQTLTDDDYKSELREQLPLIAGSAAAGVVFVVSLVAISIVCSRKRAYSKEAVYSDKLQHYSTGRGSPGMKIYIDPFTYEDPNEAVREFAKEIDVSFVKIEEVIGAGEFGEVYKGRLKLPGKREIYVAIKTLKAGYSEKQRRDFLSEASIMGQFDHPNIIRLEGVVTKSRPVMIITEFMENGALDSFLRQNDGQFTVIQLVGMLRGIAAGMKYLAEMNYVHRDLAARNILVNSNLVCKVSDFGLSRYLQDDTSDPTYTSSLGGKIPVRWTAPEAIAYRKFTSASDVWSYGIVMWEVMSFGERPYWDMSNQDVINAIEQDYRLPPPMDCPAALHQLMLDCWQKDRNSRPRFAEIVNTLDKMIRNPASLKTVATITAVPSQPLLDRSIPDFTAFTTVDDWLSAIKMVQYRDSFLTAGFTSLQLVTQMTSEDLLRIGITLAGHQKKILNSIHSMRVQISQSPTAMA
UniProt O43781, sequence (whole entry, looked up): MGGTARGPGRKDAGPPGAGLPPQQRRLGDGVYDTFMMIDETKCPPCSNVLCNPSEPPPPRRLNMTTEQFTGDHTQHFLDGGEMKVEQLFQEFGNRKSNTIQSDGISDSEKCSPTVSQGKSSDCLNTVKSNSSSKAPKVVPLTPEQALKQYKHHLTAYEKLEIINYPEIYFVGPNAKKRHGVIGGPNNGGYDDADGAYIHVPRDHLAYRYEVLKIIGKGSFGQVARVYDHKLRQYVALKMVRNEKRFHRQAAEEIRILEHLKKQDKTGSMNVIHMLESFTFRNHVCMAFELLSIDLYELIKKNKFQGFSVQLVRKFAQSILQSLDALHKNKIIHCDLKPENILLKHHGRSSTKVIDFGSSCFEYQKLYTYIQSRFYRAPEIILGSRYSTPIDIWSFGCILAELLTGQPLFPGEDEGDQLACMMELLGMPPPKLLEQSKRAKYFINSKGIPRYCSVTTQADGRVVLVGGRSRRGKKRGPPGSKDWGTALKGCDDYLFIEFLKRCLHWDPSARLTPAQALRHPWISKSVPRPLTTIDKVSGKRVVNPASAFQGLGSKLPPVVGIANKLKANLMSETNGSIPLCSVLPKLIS
UniProt Q13554, sequence (whole entry, looked up): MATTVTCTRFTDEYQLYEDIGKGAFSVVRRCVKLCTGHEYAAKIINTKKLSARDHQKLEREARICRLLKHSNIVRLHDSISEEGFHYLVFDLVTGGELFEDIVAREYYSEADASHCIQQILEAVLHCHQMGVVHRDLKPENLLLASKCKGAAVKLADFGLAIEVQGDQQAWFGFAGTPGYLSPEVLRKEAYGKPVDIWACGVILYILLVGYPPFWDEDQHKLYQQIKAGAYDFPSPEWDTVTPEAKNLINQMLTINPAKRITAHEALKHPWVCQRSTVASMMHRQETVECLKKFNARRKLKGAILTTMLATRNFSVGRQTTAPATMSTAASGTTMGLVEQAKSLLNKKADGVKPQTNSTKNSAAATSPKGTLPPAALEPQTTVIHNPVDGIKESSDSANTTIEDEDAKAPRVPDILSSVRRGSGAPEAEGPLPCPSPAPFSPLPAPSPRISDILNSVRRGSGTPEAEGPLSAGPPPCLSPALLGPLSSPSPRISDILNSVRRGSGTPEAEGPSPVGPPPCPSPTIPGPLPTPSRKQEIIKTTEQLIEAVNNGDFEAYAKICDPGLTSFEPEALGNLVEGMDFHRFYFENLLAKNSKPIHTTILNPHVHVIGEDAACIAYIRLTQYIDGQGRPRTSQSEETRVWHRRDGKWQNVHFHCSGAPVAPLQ
UniProt Q9H3Y6, sequence (whole entry, looked up): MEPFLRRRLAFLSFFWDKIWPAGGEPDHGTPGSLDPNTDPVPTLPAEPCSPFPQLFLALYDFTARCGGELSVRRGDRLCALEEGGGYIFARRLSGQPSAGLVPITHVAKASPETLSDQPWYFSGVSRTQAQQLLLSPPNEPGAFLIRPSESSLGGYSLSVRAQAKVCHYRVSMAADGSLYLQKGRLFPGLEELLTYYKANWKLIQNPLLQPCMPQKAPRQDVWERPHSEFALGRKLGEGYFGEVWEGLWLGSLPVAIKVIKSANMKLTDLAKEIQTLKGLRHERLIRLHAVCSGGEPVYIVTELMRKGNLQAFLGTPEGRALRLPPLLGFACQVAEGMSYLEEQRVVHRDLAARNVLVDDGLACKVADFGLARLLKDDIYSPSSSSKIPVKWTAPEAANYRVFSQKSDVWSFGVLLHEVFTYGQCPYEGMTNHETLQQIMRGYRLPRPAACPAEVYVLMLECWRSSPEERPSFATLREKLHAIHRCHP

Set 1 — technique: Incucyte 3D growth; tested at: 30 µM; reading: higher = more growth; measurement: spheroid area
SMILES: CC(C)(C(=O)O)[C@H](NC(=O)Cc1cccc(I)c1)c1ccc2oc(=O)[nH]c2c1
A375; 210.52 h: 1.45e+08 a.u. and 1.71e+08 a.u. and 1.51e+08 a.u. and 1.55e+08 a.u. and 1.39e+08 a.u. and 1.66e+08 a.u.
PC-9; 180 h: 1.64e+09 a.u. and 1.57e+09 a.u. and 1.62e+09 a.u. and 1.55e+09 a.u. and 1.65e+09 a.u.
KP-4; 294 h: 9.54e+07 a.u. and 7.37e+07 a.u. and 1.11e+08 a.u. and 3.17e+07 a.u. and 7.82e+07 a.u. and 5.32e+07 a.u.
MEL-JUSO; 360.52 h: 5.03e+07 a.u. and 4.37e+07 a.u. and 3.97e+07 a.u. and 5.5e+07 a.u. and 4.04e+07 a.u. and 2.86e+07 a.u.
NCI-H1437; 60 h: 2.13e+07 a.u. and 2.38e+07 a.u. and 2.66e+07 a.u. and 2.59e+07 a.u. and 3.05e+07 a.u.
KP-4; 288 h: 1.05e+08 a.u. and 9.24e+07 a.u. and 5.1e+07 a.u. and 7.44e+07 a.u. and 2.93e+07 a.u. and 7.34e+07 a.u.
A375; 168 h: 9.91e+07 a.u. and 9.99e+07 a.u. and 1.05e+08 a.u. and 8.71e+07 a.u. and 1.01e+08 a.u. and 1.2e+08 a.u.
MEL-JUSO; 84.52 h: 1.42e+07 a.u. and 1.36e+07 a.u. and 1.34e+07 a.u. and 1.5e+07 a.u. and 1.27e+07 a.u. and 1.24e+07 a.u.
NCI-H1437; 84 h: 2.44e+07 a.u. and 2.99e+07 a.u. and 3.06e+07 a.u. and 2.42e+07 a.u. and 2.9e+07 a.u.

Set 2 — organism: Sarcocystis neurona; effect on: parasite growth; tested at: 10 µM; setting: secondary screen; measurement: inhibition
[H]/N=C(/NCCCCC)N/N=C/c1c[nH]c2ccc(OC)cc12: 98.7%
CCc1nn(CCCN2CCN(c3cccc(Cl)c3)CC2)c(=O)n1CCOc1ccccc1: 58.9%
CCOC(=O)OC(C)OC1=C(C(=O)Nc2ccccn2)N(C)S(=O)(=O)c2ccccc21 (stereo not drawn): -33.2%
NS(=O)(=O)c1cc(C2(O)NC(=O)c3ccccc32)ccc1Cl (stereo not drawn): -15.7%
CC[C@@]1(O)C(=O)OCc2c1cc1n(c2=O)Cc2cc3c(CN(C)C)c(O)ccc3nc2-1: -38.8%
CCC(=O)O[C@]1(C(=O)SCF)[C@H](C)C[C@H]2[C@@H]3C[C@H](F)C4=CC(=O)C=C[C@]4(C)[C@@]3(F)[C@@H](O)C[C@@]21C: -21.9%
Nc1ccn([C@@H]2CS[C@H](CO)O2)c(=O)n1: -39.9%
CC(C)(C(=O)c1cccnc1)c1cccnc1: -43.3%
c1ccc(CC2=NCCN2)cc1: -26.2%
OCCN1CCN(CCCN2c3ccccc3Sc3ccc(C(F)(F)F)cc32)CC1: 84.6%
Cc1ccc(-c2cc(C(F)(F)F)nn2-c2ccc(S(N)(=O)=O)cc2)cc1: -56.6%
Cc1onc(-c2ccccc2)c1C(=O)N[C@@H]1C(=O)N2[C@@H]1SC(C)(C)[C@@H]2C(=O)O: -21.5%
C[N+]1(C)CCC(OC(=O)C(O)(c2ccccc2)C2CCCC2)C1 (stereo not drawn): -53.2%

Set 3 — technique: PRP chromatography estimate; medium: 1,9-decadiene/PBS; pH: 7.4; measurement: logD
CC(C)C[C@@H]1NC(=O)[C@H](C)NC(=O)[C@@H](CC(C)C)NC(=O)[C@@H](CC(C)C)NC(=O)[C@H](C(C)C)NC(=O)[C@H](CC(C)C)NC(=O)[C@@H](CC(C)C)NC1=O: 1.25
CC(C)C[C@@H]1NC(=O)[C@H](CC(C)C)NC(=O)[C@@H](C(C)C)NC(=O)[C@H](CC(C)C)NC(=O)[C@H](C(C)C)NC(=O)[C@H](Cc2cscn2)NC(=O)[C@H](C)NC1=O: -0.738
CC(C)C[C@@H]1NC(=O)[C@H](CC(C)C)NC(=O)[C@H](CC(C)C)NC(=O)[C@@H](C)NC(=O)[C@H](C)NC(=O)[C@@H](CC(C)C)NC(=O)[C@H](C)NC1=O: -1.95
CC(C)C[C@@H]1NC(=O)[C@H](C(C)C)NC(=O)[C@H](CCC(=O)N2CCCC2)NC(=O)[C@H](CCC(=O)N2CCCC2)NC(=O)[C@@H](CCC(=O)N2CCCC2)NC(=O)[C@H](CC(C)C)NC(=O)[C@@H](CC(C)C)NC1=O: -2.19
CC(C)C[C@@H]1NC(=O)[C@H](CC(C)C)NC(=O)[C@@H](C(C)C)NC(=O)[C@H](C(C)C)NC(=O)[C@@H](Cc2cscn2)NC(=O)[C@H](C)NC(=O)[C@H](CCC(=O)N2CCCC2)NC1=O: -2.62
CC(C)C[C@@H]1NC(=O)[C@H](C)NC(=O)[C@H](CCC(=O)N2CCCC2)NC(=O)[C@H](CC(C)C)NC(=O)[C@@H](CCC(=O)N2CCCC2)NC(=O)[C@H](CC(C)C)NC(=O)[C@@H](CC(C)C)NC1=O: -1.85
CC(C)C[C@@H]1NC(=O)[C@H](C(C)C)NC(=O)[C@@H](CC(C)C)NC(=O)[C@@H](CC(C)C)NC(=O)[C@H](C(C)C)NC(=O)[C@H](CC(C)C)NC(=O)[C@@H](CC(C)C)NC1=O: 2.08
CC(C)C[C@@H]1NC(=O)[C@H](C)NC(=O)[C@H](C)NC(=O)[C@@H](CC(C)C)NC(=O)[C@H](C(C)C)NC(=O)[C@H](CC(C)C)NC(=O)[C@@H](CC(C)C)NC1=O: -0.673
CC(C)C[C@@H]1NC(=O)[C@H](C)NC(=O)[C@@H](CCC(=O)N2CCCC2)NC(=O)[C@H](C)NC(=O)[C@H](C)NC(=O)[C@H](CC(C)C)NC(=O)[C@H](CC(C)C)NC1=O: -3.57

Set 4 — effect on: enzyme activity; mode: inhibitor; tested at: 0.5 µM; baseline: control; measurement: remaining activity
Compound: O=C(NC(NC(=S)Nc1ccc(F)c([N+](=O)[O-])c1)C(Cl)(Cl)Cl)C(c1ccccc1)c1ccccc1 (stereo not drawn)
RPS6KA6 (Homo sapiens, UniProt Q9UK32): 94.7%
PDPK1 (Homo sapiens, UniProt O15530): 112%
WNK3 (Homo sapiens, UniProt Q9BYP7): 108%
STK16 (Homo sapiens, UniProt O75716): 99.4%
DYRK3 (Homo sapiens, UniProt O43781): 100%
MAP4K4 (Homo sapiens, UniProt O95819): 92.7%
CAMK2B (Homo sapiens, UniProt Q13554): 104%
SRMS (Homo sapiens, UniProt Q9H3Y6): 96.9%
HIPK2 (Homo sapiens, UniProt Q9H2X6): 118%
TSSK2 (Homo sapiens, UniProt Q96PF2): 92.7%
EPHB1 (Homo sapiens, UniProt P54762): 109%
